# Assay results pooled from the literature.
# Numbered parts are unrelated; each lists some results of a single study. Substitutions count along the parent as printed.

# Series 1
# Target: Sal-like protein 4, full length isoform A (SALL4, Homo sapiens, UniProt Q9UJQ4, residues 1-1053)
# Chain of UniProt Q9UJQ4 (whole entry, looked up): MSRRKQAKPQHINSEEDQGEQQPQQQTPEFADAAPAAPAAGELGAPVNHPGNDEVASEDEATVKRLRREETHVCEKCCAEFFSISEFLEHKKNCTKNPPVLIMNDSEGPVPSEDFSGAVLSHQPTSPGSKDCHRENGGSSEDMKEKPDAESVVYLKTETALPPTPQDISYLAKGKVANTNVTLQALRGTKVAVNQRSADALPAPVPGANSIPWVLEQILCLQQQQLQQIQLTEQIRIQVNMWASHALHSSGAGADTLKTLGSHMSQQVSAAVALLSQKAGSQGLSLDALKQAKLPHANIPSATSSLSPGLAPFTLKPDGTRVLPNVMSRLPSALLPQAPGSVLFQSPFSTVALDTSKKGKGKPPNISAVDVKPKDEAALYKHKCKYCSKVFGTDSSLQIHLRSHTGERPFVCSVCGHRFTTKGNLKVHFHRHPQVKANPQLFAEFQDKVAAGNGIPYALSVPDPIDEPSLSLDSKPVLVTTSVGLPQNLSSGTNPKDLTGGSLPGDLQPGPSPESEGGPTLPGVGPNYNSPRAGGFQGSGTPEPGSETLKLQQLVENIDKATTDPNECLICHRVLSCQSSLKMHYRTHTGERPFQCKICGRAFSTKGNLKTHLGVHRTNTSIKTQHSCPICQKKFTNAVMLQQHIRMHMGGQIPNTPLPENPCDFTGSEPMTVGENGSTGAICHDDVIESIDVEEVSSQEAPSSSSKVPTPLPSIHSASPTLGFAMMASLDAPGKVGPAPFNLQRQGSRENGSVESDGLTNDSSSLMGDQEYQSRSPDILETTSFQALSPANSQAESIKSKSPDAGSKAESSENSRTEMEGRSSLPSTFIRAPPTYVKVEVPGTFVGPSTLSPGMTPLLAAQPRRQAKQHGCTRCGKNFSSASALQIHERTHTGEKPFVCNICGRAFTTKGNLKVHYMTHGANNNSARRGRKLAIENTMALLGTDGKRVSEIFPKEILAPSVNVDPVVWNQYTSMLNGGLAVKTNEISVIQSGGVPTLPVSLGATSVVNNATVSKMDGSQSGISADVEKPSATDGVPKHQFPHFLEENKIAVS
# Technique: universal PBM
# Molecule type: double-stranded DNA, one strand shown
# Sample: in vitro
# Tested at: 600 nM
# Notes: 8-mer, flanks averaged, mean of replicates
# Direction: higher = stronger binding
Oligonucleotide,E-score
CAGAACGG,-0.152
TGAAAAAA,0.321
CGCGAAGA,-0.139
AAAACCCG,-0.04
AAAATCTG,0.121
AGGGGACA,-0.2
GTGGAAAA,0.179
CGGCAACC,-0.327
AGGCCAAA,-0.0976
CCTCAACA,0.126
ACACCAGG,-0.138
CCCTAGTA,-0.0122
TGGCAACA,0.116
ATCCGTCA,0.0184

# Series 2
# Target: CCNB1, cyclin fold, Cln2 fusion (human)
# Technique: yeast growth competition, sequencing
# Sample: yeast
# Notes: weak parent motif
# Baseline: not given
# Direction: higher = stronger binding
# Starting sequence: CDKN1B docking peptide (human); PSACRNLFGPVDH
Change,normalised enrichment score
PSACRGLFGPVDH [N6G],0.106
PSACRNLFGDVDH [P10D],0.925
PQACRNLFGPVDH [S2Q],0.0153
PSACKNLLGPVDH [R5K F8L],0.181
PSACRNLFGPVDQ [H13Q],0.316
PSATRNLFGPVDH [C4T],0.0457
PCACRNLFGPVDH [S2C],0.347

# Series 3
# Target: RING finger protein unkempt homolog, zinc fingers 1-6, GST-SBP tag (UNK, Homo sapiens, UniProt Q9C0B0, residues 30-357)
# Technique: RNA Bind-n-Seq
# Molecule type: RNA
# Sample: in vitro
# Tested at: not given
# Notes: RNA with constant flanks, human and mouse sites, ends assumed
# Baseline: input RNA pool
# Direction: higher = stronger binding
# Constant ends, left off below: GGGAGUUCUACAGUCCGACGAUC … CAACAGAGGAUUGAGCAUCA
# Construct (chain): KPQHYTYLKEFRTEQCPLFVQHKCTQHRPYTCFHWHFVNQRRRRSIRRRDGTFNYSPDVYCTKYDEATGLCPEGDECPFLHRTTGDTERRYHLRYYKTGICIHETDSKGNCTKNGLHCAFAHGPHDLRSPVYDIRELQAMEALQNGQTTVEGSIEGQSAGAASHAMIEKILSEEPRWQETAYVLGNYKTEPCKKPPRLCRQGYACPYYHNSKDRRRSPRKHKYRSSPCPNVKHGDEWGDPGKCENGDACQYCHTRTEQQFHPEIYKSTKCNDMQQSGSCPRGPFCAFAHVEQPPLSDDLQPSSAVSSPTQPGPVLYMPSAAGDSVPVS
Oligonucleotide,bound/input enrichment [ratio]
UGCUUGUGCCCCUUGGGUUCUCUUUCAUUUUUUCUUUUUCUUUCUAUUUUUUUUCCGGUUGGGGGUGGGAGGGUUGGAUCGAACAGCCAGAGGGCCCUAGAGUUCCAUGCAUCUAAUUUA,1.7
UUUCCACUUGAUGUCAUCACGCAGAAGGGGUGAAAGAGACUCGGUGACAGAUACAGAAAUGAACACACCUGUGAGUACUGGAUGCCUGUGAGCUUGCCAUUACCUGCACUGCAAAGACAC,0.0869
GACUCUGAAGAUGCACUUUCUGUUCAAUUUGACAUGAAAUUGGCUGAUGUGGGAGGAGAUCUUAAGCAUGUCAUGUCUGAUAGCUCUUUGGAUUUACCAACAGUUAGUGGCCAGCAUCCU,0.207
CCUGUCUCAGGUUCAAAAGCUGCUUUGCAUGUGCCCAGUAGAUUUUCAUGGAAUCUUCCAACUAGAUGAAAGACGGAGAGAUGCAGUGAUUGCAUUGGGCAUUUUUCUCAUUGAAUCUGA,0.218
GCUGCGCAAAUGAAUGGUAAACCAGAAUCCAGUUCUGUGGUUCGAACUAGGAGCAACCGUGUAGCUGUAGAUCCAGUUGUCACCGAGCAGCCCUCUACAUCAUCAGCCACAAAAGCUUUU,0.161
GUUGAGAAAAAGGAGAAACCUCUUCCAAGACUUAAUAUCCAUUCUGGAUUCUGGAUUUUGGCAUCCAUUGUUGUGACCUAUUAUGUUGACUUCUUUAAAACCCUUAAAGAAAACUUCCAC,0.203
GCUGUAUUUUUAUCUUUUCCCUGUUAUGUUGAAUUCUAUACUUUAAUUUAUAAAUUUCAAAUUCUAUAAACCUACAUGACUGUUAUAAUCCUGGAAAAUGUUGGUGUCAGAAAAUGAAUG,3.72
GUUCUCUCUGUCACUGACUUAUUUGUAAGAGAAAAUUAGUUGGACUUGUUUAUUUUCUAGUAGCUUUUAUAAGUACACUCAAGAAUUUGUCAGGGAGAAUAAUUCUGAUAGUGCAUCCCA,5.8
GGUCAGGCUAAUAAGCCUGAUGAAACUAGUAAAACUAGUAUUCUGGCUGUAUCAGAUGUAUCUAGCAGUAAACCAAGCAUCAAGGCUGUUAUAGUCUCUUCUCCUAAGGCAAAAGCUACA,0.299
UCAUAUGUUCAAGACAGAGUUCCUUCAUAUUCACAAGGAGCAAGACCAAAAGAAAACUCAAUGAGCACUUUACAGUUGAAUACAUCAUCCACAAACCACCAAUUGCCUUCUGAACAUCAG,0.228
UCUCCAGAACAUAAAGAACUGUCUAACUCCCCACUCAGGGAGAACAGCUUUGGAUCACCUUUAGAAUUUAGAAACUCAGGCCCACUUGGUACAGAAAUGAAUACUGGAUUUUCUUCUGAG,2.42

# Further values, each from its own experiment
Molecule,target,assay,test system,setting,how to read,quantity,result
"PhoQ, residues 284 288 289 292 302 303 NLGVHL","PhoP, residues 12 14 15 18 19 LWHCS (Escherichia coli, UniProt P23836)","Sort-seq, measured: YFP reporter",E. coli,"PhoQ-PhoP variant library, together with: 10 µM Mg2+","baseline: high Mg2+ state, higher = stronger signaling",fold induction,3.02

# Excerpt of the above (series 2):
Change,normalised enrichment score
PQACRNLFGPVDH [S2Q],0.0153
PSACKNLLGPVDH [R5K F8L],0.181
PSACRNLFGPVDQ [H13Q],0.316
